Published values pooled from the literature.
Values joined by “and” are separate records of one study, mostly repeats; a detail may differ. Numbers after ± are the reported error.

Compound | target or system | test | system | conditions | how to read | measurement | result
C=CC(=O)N(C)CCOc1c(N)ncnc1-c1cc(F)cc(NC(=O)c2ccc(C3CC3)cc2F)c1C | – | – | human, whole blood | oral, 25 mg once daily, day 12 | – | Cmax | 85.9 ng/mL
O=C(O)CCC(=O)O.[2H]C([2H])([2H])Oc1cc(C)c2[nH]ccc2c1CN1CC[C@@H](C2CC2)C[C@H]1c1ccc(C(=O)O)cc1 | – | multiple ascending dose | healthy Chinese subjects | 300 mg once daily | – | subjects with any TEAE | 62.5%
CO[C@@H]1[C@@H](OC(N)=O)[C@@H](O)[C@H](Oc2ccc3c(O)c(NC(=O)c4ccc(O)c(CC=C(C)C)c4)c(=O)oc3c2C)OC1(C)C | – | starch gel membrane permeability | Gram-negative envelope surrogate | 200 µM, 10 min, pH 7.4 | – | amount permeated | 0.49 nmol
COc1cccc(OC)c1-c1cc(C(=O)NC2(C(=O)O)C3CC4CC(C3)CC2C4)nn1-c1ccc(C(=O)N(C)CCCN(C)CCCN(C)C(=O)CN2CCN(CC(=O)[O-])CCN(CC(=O)[O-])CCN(CC(=O)[O-])CC2)cc1C(C)C.[177Lu+3] (stereo not drawn) | – | – | mouse HT-29 xenograft, small intestine | 4 h post injection, biodistribution | – | tissue uptake | 3.2 %ID/g
COc1cc(C=CC(=O)O)ccc1O[C@@H]1O[C@H](C(=O)O)[C@@H](O)[C@H](O)[C@H]1O | – | – | human plasma | median | – | plasma concentration | 2360 nM
CCc1c(-c2ccccc2)c(-c2ccccc2)nn1-c1ccccc1-c1cccc(OCC(=O)O)c1 | – | – | Sprague-Dawley rat | oral, dose not given | – | AUC extrapolated observed | 0.214% and 0.114% and 0.0943%
CC(=O)CC(c1ccccc1)c1c(O)c2ccccc2oc1=O (stereo not drawn) | – | – | Sprague-Dawley rat, male, plasma | oral, 0.2 mg/kg, together with: miconazole | reference: cpd alone | AUC | 100%
Cc1cc(C)c(CNC(=O)c2cc(Cl)c3c(c2C)O[C@@](C)([C@H]2CC[C@H](N(C)C)CC2)O3)c(=O)[nH]1 | – | refers to: Dysgeusia | human patients | oral, 200 mg once daily, 1 day onset day 14 | – | patients with TEAE | 4.2%
O=C(O)C[C@H](O)C[C@H](O)/C=C/c1c(C2CC2)nc2ccccc2c1-c1ccc(F)cc1 | COS-7 | – | – | 10 µM, 24 h, 0.1% DMSO, unit not given | reference: vehicle control | necrotic cells | 0.7 ± 0.03
C[C@@H]1CCO[C@H]2Cn3cc(C(=O)NCc4ccc(F)cc4F)c(=O)c(O)c3C(=O)N12 | – | – | human paediatric patients, weight 6 to under sample A kg, plasma | oral, 4.8 mg granules, steady state, geometric mean, population PK post-hoc, N 1 | – | AUC(0-24) | 25400 ng·h/mL
Cc1nc(-c2cnc(NC(C)C)n(C)c2=O)ccc1Oc1ccnc(-c2cnn(C)c2)c1 | – | – | Beagle dog, male, plasma | oral, 10 mg/kg, crossover study, mean | – | apparent clearance | 13.8 mL/min/kg
C=CC(=O)Nc1cc(Nc2nccc(-c3cn(C)c4ccccc34)n2)c(OC)cc1N(C)CCN(C)C | – | – | human plasma | 5 h, storage stability, LLOQ sample | – | recovery | 92.3%
CNC(=O)c1ccc(-c2cnc3ncc(Cc4ccc5ncccc5c4)n3n2)cc1F | – | – | Japanese patients | oral, 400 mg, any grade | – | Haematuria dose reduction/interruption | 1%
Cc1c2oc3c(C)ccc(C(=O)N[C@@H]4C(=O)N[C@H](C(C)C)C(=O)N5CCC[C@H]5C(=O)N(C)CC(=O)N(C)[C@@H](C(C)C)C(=O)O[C@@H]4C)c3nc-2c(C(=O)N[C@@H]2C(=O)N[C@H](C(C)C)C(=O)N3CCC[C@H]3C(=O)N(C)CC(=O)N(C)[C@@H](C(C)C)C(=O)O[C@@H]2C)c(N)c1=O | – | LC-MS | children with cancer, plasma | dose not given, 2 h | – | minimum plasma concentration | 1.4 µg/L
Cc1cc(-c2nccc3c2ccn3CC(=O)Nc2ccc(-c3cnccn3)cn2)ccn1 | – | – | human, plasma | oral, 20 mg once daily, day 16, geometric mean | – | AUCtau | 2.59 µM·h
O=C(O)c1ccc(O)cc1 | – | – | human plasma | mean, both sexes | – | plasma concentration | 1110 nM
Cc1ccc([C@@H]2O[C@H](CO)[C@@H](O)[C@H](O)[C@H]2O)cc1Cc1ccc(-c2ccc(F)cc2)s1 | – | – | Japanese type 2 diabetes patients | 100 mg, day 6, 24 h urine collection | reference: baseline | urinary potassium excretion change | -3.35 mEq
COc1ccc([C@@H](O)c2cc(-c3ncnc4cc(N5CCOCC5)ccc34)c(F)cc2Cl)nn1 | – | – | locally advanced rectal cancer patients | 150 mg, together with: capecitabine and radiotherapy | – | drug-related blood lymphatic AE | 33%
CC(=O)O[C@H]1C[C@@]2(C)[C@@H](C[C@@H](O)[C@H]3[C@@]4(C)CC[C@@H](O)[C@@H](C)[C@@H]4CC[C@@]32C)/C1=C(\CCC=C(C)C)C(=O)O | – | starch gel membrane permeability | Gram-negative envelope surrogate | 200 µM, 30 min, pH 7.4 | – | amount permeated | 0.18 nmol
CC(C)c1nc(CN(C)C(=O)N[C@@H](CCN2CCOCC2)C(=O)N[C@H](CC[C@H](Cc2ccccc2)NC(=O)OCc2cncs2)Cc2ccccc2)cs1 | – | refers to: Photopsia | human | oral, 150 mg | – | drug-related TEAE incidence | 0%
O=C1c2ccncc2C(=O)c2c1[nH]c1ccccc21 | – | – | Sprague-Dawley rat, male, plasma | oral, 5 mg/kg | reference: intravenous AUC(0-t) | oral bioavailability | 21.1%
CNc1ccc(-c2nc3ccc(O)cc3s2)cc1 [carbon-11 labelled] | – | microPET/CT imaging | APP/PS1 mouse, AD model, brain | intravenous, 15 min | – | SUV | 0.278 ± 0.099
COc1ccc2[nH]c([S+]([O-])Cc3ncc(C)c(OC)c3C)nc2c1 (stereo not drawn) | – | – | human male | oral, 5 mg, 2 h, baseline session | – | R/S ratio | 0.7
CCc1nc(C(N)=O)c(Nc2ccc(N3CCC(N4CCN(C)CC4)CC3)c(OC)c2)nc1NC1CCOCC1 | – | – | Japanese patients, plasma | oral, 120 mg, cycle 1 day 28, multiple doses, median | – | AUCtau | 13500 ng·h/mL

Compound | target or system | test | system | conditions | how to read | measurement | result
NC1(C(=O)N[C@@H](CCO)c2ccc(Cl)cc2)CCN(c2nc[nH]c3nccc2-3)CC1 | – | – | metastatic CRPC patients | 320 mg b.i.d., grade 3 to 4, treatment-related, together with: enzalutamide 160 mg daily | – | incidence of white blood cell decreased | 0%
Oc1ccc(/C=C/c2cc(O)cc(O)c2)cc1 | – | – | rat, azoxymethane-injected, blood | in vivo, 100 mg/kg, at sacrifice | – | ALT level | 119 IU/L and 126 IU/L and 156 IU/L
Cc1cc(Nc2cc3ncccc3c(N[C@@H]3C[C@H]4CC[C@@H](C3)N4CCC#N)n2)n[nH]1 | – | – | human | 300 mg, day 1 | – | AUC(0-24) | 55.7 ng·h/mL
CC(C)(C(=O)N1CCOc2c(C#N)cncc2C1)C(F)F | – | refers to: Dermatitis | human | oral, 10 mg once daily, 14 days, multiple ascending dose | – | subjects with adverse event | 12.5%
O=C(O)c1ccc(O)cc1O | – | – | human plasma | median, both sexes | – | plasma concentration | 10500 nM
CCOc1c([C@H](C)n2nc(C)c3c(N)ncnc32)cc(Cl)c(F)c1[C@@H]1CNC(=O)C1 | – | refers to: QRS >100 to ≤110 ms | previously treated B-cell malignancy | oral, 15 mg once daily, baseline below thresholds | – | ECG observations | 0%
O=C1C[C@@H](c2ccc(O[C@@H]3O[C@H](C(=O)O)[C@@H](O)[C@H](O)[C@H]3O)cc2)Oc2cc(O)cc(O)c21 | – | – | human plasma | mean | – | plasma concentration | 705 nM
Cc1nc2ccc(OCc3ccc(C(F)(F)F)cc3)cc2[nH]1 | – | – | male Balb/c mice, kidney | oral, 10 mg/kg, 4 h | reference: tissue over plasma | tissue/plasma ratio | 13.2 ± 1.4
CC(=O)NCc1cc2c(cc1F)C(=O)N(C1CCC(=O)NC1=O)C2 (stereo not drawn) | – | – | cynomolgus monkey, male | oral, 0.3 mg/kg parent drug, 2 h | – | plasma concentration | 0.28 ng/mL
FC(F)(F)c1ccc(CNc2ccc(Cc3c[nH]c4ncc(Cl)cc34)cn2)cn1 | – | refers to: blood alkaline phosphatase increased | patients with advanced solid tumours | oral, dose not given, grade 1 and 2, possibly related to drug | – | adverse event incidence | 15%
Cn1nc2c(=O)n(C3CC3)ccc2c1[C@](O)(c1cnc(C(F)(F)F)c(Cl)c1)C(F)(F)F | – | – | rat Sprague-Dawley male, plasma | intravenous, 1 mg/kg | – | CL | 1.81 ± 0.17 mL/min/kg
O=C1c2cccc(O)c2C(=O)c2c(O)cc(CO)cc21 | HepaRG co-cultured with HK-2 | MTT | – | 266.67 µM, 48 h | reference: untreated control | cell viability | 35.5 ± 2.23%
CCO[C@H]1CCN(Cc2c(OC)cc(C)c3[nH]ccc23)[C@H](c2ccc(C(=O)O)cc2)C1 | – | – | PNH patients, active haemolysis | oral, 25 mg, 4 weeks, treatment | – | incidence of back pain | 0%
O=C(O)CCc1nc(-c2ccccc2)c(-c2ccccc2)o1 | COS-7 | – | – | 50 µM, 24 h, 0.1% DMSO, unit not given | reference: vehicle control | necrotic cells | 0.69 ± 0.21
COc1cc(O)c2c(c1)C(=O)c1cc(C)cc(O)c1C2=O | HepaRG co-cultured with HK-2 | MTT | – | 266.67 µM, 48 h | reference: untreated control | cell viability | 26.5 ± 5.07%
O=C(/C=C/c1ccc(O)c(O)c1)O[C@H]1[C@H](O)C[C@](O)(C(=O)O)C[C@H]1O | – | – | human plasma | median | – | plasma concentration | 23.5 nM
C[C@@H](N)C1CCN(S(=O)(=O)c2cccc3cnccc23)CC1 | – | – | healthy volunteers, fasted, plasma | oral, 25 mg | – | duration of quantifiable plasma levels | ≤ 2 h
O=C(Nc1nc2cccc(-c3ccc(CN4CCS(=O)(=O)CC4)cc3)n2n1)C1CC1 | – | refers to: renal and urinary disorders | rheumatoid arthritis patients | oral, 300 mg once daily, 4 weeks, any relatedness | – | treatment-emergent adverse events | 5%
CCn1cc(C(=O)O)c(=O)c2ccc(C)nc21 | – | starch gel membrane permeability | Gram-negative envelope surrogate | 200 µM, 60 min, pH 7.4 | – | amount permeated | 4.37 nmol
CC1CCNc2c(C(=O)NC/C=C/S(C)(=O)=O)cccc21 (stereo not drawn) | – | – | uninfected mouse, serum | 300 mg/kg | – | serum BUN | 27 mg/dL
O=C(O)CNC(=O)c1ccccc1 | – | – | human plasma | mean, both sexes | – | plasma concentration | 387000 nM
CCc1cc(C(=O)NC)c2nccc(N3CCc4c(cc(Cn5ccnc5)cc4-c4cn(C)nc4C(F)(F)F)C3=O)c2c1 | – | – | Sprague Dawley rats, male, plasma | oral, 100 mg/kg twice daily, 7 days | – | AUC extrapolated | 0%
COc1cc2c3c(n(CCCN4CCOCC4)c(=O)c2cc1OC)-c1cc2c(cc1C3=O)OCO2 | – | – | Fischer 344 rat, male, plasma | intravenous bolus, 24 mg/m^2 | – | clearance | 51 to 56 L/h/m²
C1=C/COCc2cc(ccc2OCCN2CCCC2)Nc2nccc(n2)-c2cccc(c2)COC/1 | – | – | rat Sprague-Dawley male, plasma | oral, together with: voriconazole | reference: without voriconazole | Tmax decrease | 19%

Excerpt of the above:
Compound | target or system | test | system | conditions | how to read | measurement | result
CCc1c(-c2ccccc2)c(-c2ccccc2)nn1-c1ccccc1-c1cccc(OCC(=O)O)c1 | – | – | Sprague-Dawley rat | oral, dose not given | – | AUC extrapolated observed | 0.214% and 0.114% and 0.0943%
O=C1C[C@@H](c2ccc(O[C@@H]3O[C@H](C(=O)O)[C@@H](O)[C@H](O)[C@H]3O)cc2)Oc2cc(O)cc(O)c21 | – | – | human plasma | mean | – | plasma concentration | 705 nM
O=C(O)CCc1nc(-c2ccccc2)c(-c2ccccc2)o1 | COS-7 | – | – | 50 µM, 24 h, 0.1% DMSO, unit not given | reference: vehicle control | necrotic cells | 0.69 ± 0.21
O=C(/C=C/c1ccc(O)c(O)c1)O[C@H]1[C@H](O)C[C@](O)(C(=O)O)C[C@H]1O | – | – | human plasma | median | – | plasma concentration | 23.5 nM
